Measured values pooled from the literature.
Parts stem from different laboratories: compare values within a part only.
Sequence of UniProt P42684 (whole entry, looked up): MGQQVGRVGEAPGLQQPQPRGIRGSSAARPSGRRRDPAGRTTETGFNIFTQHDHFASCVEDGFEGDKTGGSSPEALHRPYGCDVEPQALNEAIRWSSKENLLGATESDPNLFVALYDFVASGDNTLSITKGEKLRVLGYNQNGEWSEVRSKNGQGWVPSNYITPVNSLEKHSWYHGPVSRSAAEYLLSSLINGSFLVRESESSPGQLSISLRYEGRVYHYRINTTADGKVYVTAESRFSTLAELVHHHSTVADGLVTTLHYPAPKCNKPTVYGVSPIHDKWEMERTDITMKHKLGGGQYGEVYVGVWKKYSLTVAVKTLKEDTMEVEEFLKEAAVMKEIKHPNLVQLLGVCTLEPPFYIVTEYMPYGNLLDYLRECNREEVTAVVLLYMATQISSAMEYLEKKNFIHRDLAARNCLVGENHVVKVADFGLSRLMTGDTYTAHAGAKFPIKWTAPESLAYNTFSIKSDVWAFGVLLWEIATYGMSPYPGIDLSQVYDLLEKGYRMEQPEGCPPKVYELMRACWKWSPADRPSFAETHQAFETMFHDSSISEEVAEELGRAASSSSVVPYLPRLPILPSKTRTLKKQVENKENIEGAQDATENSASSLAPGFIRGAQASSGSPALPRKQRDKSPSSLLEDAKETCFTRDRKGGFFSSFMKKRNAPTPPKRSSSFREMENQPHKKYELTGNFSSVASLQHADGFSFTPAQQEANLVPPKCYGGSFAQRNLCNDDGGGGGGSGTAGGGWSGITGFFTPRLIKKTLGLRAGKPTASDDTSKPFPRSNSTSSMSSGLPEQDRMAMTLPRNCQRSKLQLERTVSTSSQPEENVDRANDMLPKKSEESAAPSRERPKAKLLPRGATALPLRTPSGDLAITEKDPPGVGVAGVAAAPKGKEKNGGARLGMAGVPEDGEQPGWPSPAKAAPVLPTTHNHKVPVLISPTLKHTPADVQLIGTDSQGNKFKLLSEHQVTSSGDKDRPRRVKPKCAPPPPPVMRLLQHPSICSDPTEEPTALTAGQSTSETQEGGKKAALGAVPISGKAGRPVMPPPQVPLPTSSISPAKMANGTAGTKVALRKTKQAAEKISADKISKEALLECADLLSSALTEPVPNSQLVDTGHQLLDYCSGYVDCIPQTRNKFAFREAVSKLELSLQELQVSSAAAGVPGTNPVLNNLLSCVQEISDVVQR
Sequence of UniProt Q9Y6R4 (whole entry, looked up): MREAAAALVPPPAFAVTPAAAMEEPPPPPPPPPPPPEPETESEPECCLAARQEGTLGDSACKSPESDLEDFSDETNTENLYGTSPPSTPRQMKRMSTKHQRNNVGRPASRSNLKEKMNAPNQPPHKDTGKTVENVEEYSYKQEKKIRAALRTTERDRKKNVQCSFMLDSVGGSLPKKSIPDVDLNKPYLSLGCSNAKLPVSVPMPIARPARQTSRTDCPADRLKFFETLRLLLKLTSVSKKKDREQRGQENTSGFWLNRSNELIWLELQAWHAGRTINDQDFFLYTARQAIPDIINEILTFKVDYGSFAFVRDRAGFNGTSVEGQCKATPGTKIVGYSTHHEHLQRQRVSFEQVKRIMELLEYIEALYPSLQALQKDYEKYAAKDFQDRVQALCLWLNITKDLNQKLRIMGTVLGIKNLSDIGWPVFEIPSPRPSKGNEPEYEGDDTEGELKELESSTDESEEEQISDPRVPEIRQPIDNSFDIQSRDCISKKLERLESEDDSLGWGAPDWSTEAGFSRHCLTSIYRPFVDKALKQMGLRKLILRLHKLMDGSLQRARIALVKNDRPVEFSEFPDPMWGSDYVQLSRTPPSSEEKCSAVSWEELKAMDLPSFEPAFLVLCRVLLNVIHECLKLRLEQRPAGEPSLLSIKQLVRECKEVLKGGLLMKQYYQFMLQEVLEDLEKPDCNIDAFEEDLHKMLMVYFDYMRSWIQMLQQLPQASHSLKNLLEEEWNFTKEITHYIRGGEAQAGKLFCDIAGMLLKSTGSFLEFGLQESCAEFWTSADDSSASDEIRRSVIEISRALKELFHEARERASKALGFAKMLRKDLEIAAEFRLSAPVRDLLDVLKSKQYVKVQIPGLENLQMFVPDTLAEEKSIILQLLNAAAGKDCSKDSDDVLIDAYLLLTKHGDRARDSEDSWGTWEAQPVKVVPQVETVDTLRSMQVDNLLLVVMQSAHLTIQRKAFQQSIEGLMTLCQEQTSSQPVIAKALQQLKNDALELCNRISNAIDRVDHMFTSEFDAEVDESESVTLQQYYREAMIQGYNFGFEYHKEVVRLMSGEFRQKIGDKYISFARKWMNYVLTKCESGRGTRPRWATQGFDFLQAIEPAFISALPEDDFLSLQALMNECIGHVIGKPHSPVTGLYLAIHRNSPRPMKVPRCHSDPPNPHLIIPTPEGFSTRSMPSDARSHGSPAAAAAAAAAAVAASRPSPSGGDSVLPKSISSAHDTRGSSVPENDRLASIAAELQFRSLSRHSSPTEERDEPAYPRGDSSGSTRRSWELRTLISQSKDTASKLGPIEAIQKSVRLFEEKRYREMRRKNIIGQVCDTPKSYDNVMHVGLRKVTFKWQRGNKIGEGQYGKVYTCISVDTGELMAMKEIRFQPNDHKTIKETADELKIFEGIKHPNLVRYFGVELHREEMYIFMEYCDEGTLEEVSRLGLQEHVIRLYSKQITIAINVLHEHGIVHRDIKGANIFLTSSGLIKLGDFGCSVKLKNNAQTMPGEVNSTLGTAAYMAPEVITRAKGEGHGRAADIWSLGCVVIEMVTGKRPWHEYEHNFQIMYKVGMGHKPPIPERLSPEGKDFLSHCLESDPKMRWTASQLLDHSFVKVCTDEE
Sequence of UniProt Q99640 (whole entry, looked up): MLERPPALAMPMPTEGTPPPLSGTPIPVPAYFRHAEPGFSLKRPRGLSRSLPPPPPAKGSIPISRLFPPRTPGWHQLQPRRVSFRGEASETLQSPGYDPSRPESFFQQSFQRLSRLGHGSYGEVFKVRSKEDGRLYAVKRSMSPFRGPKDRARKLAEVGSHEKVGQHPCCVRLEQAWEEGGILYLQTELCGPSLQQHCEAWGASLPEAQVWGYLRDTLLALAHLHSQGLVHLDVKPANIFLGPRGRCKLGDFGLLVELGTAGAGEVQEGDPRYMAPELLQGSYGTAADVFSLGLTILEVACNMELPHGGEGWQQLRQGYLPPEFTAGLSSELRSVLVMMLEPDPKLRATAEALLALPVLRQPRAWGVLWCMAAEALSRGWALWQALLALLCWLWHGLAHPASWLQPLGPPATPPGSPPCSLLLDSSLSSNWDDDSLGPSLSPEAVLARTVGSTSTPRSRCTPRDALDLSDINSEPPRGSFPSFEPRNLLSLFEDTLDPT
Sequence of UniProt Q86UE8 (whole entry, looked up): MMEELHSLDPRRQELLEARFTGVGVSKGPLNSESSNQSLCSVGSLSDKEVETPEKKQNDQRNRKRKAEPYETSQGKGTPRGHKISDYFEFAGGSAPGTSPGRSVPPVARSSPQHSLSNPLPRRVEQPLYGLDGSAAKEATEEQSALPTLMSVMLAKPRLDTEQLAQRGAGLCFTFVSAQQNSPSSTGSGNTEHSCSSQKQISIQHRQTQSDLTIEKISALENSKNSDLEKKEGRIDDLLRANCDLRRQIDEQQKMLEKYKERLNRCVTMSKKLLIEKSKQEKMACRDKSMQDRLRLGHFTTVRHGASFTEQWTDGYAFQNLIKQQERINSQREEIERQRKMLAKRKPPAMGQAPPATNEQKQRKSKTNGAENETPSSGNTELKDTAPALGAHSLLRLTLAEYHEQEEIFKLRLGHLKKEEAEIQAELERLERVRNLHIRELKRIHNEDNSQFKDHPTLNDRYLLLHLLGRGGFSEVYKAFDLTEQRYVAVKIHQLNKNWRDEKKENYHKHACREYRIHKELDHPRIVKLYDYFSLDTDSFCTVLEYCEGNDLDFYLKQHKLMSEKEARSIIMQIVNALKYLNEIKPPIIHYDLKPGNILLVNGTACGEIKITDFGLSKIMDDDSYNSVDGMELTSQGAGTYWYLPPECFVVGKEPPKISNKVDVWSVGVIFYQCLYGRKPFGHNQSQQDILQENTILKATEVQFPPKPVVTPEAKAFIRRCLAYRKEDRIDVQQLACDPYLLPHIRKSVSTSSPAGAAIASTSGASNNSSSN

Series 1 — method: RNA Bind-n-Seq; form: RNA; matrix: in vitro; tested at: not given; setting: 4-mer, random 30-nt RNA, single round; together with: RocA, ADP, phosphate; relative to: input library; reading: higher = stronger binding; quantity: 4-mer enrichment
Target: ATP-dependent RNA helicase DDX3X, helicase core (DDX3X, Homo sapiens, UniProt O00571, residues 132-607)
Sequence of UniProt O00571 (132-607, looked up): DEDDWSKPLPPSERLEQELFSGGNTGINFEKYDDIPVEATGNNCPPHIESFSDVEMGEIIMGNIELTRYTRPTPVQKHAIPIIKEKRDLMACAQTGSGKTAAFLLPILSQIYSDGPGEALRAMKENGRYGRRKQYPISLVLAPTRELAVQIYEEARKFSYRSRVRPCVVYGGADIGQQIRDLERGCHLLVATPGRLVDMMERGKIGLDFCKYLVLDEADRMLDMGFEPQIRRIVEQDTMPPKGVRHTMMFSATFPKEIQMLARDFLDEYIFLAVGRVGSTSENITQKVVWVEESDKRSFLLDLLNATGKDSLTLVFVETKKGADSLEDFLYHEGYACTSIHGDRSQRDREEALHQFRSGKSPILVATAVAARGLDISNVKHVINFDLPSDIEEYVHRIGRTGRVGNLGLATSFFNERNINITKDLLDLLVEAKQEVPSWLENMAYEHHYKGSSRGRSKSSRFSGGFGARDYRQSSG
CGAC: 0.647 fold
UCAC: 0.673 fold
CCCA: 0.876 fold
GGAG: 2.67 fold
GGUC: 0.927 fold
CAGC: 0.713 fold
UUUC: 0.769 fold
GUCC: 0.892 fold

Series 2 — observed: enzyme activity; action: inhibitor; tested at: 0.5 µM; relative to: control; quantity: remaining activity
Target: Mitogen-activated protein kinase 11 (MAPK11, Homo sapiens, UniProt Q15759)
Sequence of UniProt Q15759 (whole entry, looked up): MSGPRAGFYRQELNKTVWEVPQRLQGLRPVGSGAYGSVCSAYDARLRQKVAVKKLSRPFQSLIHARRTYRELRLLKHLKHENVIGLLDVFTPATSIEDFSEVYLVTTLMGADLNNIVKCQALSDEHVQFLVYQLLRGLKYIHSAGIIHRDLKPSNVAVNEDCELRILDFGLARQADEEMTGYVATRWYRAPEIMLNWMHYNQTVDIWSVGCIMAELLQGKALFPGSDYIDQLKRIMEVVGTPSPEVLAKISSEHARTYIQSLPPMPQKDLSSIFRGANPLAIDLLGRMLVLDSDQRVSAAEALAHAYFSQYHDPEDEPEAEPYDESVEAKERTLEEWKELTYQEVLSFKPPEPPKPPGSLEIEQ
OCC(O)CCON=C1C(c2c(O)[nH]c3ccccc23)=Nc2ccccc21 (centres unmarked): 95.2%
COc1ccc(CNC(=O)Nc2ncc([N+](=O)[O-])s2)cc1: 95.4%
CN(C)c1ccc(C=C2C(=O)Nc3ccccc32)cc1: 93.5%
O=C1NC(=O)C(c2cn(CCCn3ccnc3)c3ccccc23)=C1Nc1ccccc1: 111%
Cc1ccc(NC(=O)c2ccc(CN3CCN(C)CC3)cc2)cc1Nc1nc(-c2cccnc2)cs1: 102%
Oc1ccc(-c2nc(-c3ccncc3)c(-c3ccc(F)cc3)[nH]2)cc1: 32.8%
COc1cc2ncnc(Nc3ccc(F)c(Cl)c3)c2cc1OCCCN1CCOCC1: 95.1%
COc1ccc(OC)c2c(=S)c3ccccc3[nH]c12: 86.7%
CC(C)[C@H](CO)Nc1nc(Nc2cc(N)cc(Cl)c2)c2ncn(C(C)C)c2n1: 96.3%
O=C1NC(=O)C(c2cn(CCCO)c3ncccc23)=C1c1cnccn1: 105%
Nc1[nH]nc2nc3ccccc3nc12: 93.8%
Nc1ncnc2n[nH]c(Nc3ccc(F)cc3)c12: 108%
O=S(=O)(c1cccc2cnccc12)N1CCCNCC1: 91.9%
Cn1c2ccccc2c2c3c(c4c5ccccc5n(CCC#N)c4c21)CNC3=O: 99.5%
O=C(O)c1ccc2c3c1cccc3c(=O)n1c3ccccc3nc21: 105%

Series 3 — host: human; matrix: microsomes or S9; tested at: 2 µM; time: 0.5 h; quantity: remaining compound
O=C(Cc1ccc(N(Cc2ccccc2)C(=O)C2CCCC2)cc1)NCc1ccco1: 4.83%
CCC(CC)CN1CC2(CCN(C(=O)[C@@H]3C[C@H](N)CN3C)CC2)OC1=O: > 100%
Cc1nc2c([nH]1)CCC(C(=O)Nc1onc3c1CCCC3)C2 (centres unmarked): > 99.9%
CN(C)CC(C)(C)CNc1ncnc2c1cnn2-c1ccccc1: 34.3%

Series 4 — observed: cell-free assay; method: competition with immobilised ligand; tested at: 0.1 µM; quantity: remaining binding
SMILES: Cn1nc(C(=O)NCc2ccc(C(=O)O)cc2)cc1-c1ccc2[nH]ccc2c1
PKMYT1 (Homo sapiens, UniProt Q99640): 93%
ABL2 (Homo sapiens, UniProt P42684): 93%
MAP3K4 (Homo sapiens, UniProt Q9Y6R4): 86%
PLK4 (Homo sapiens, UniProt O00444): 61%
TLK2 (Homo sapiens, UniProt Q86UE8): 89%
